Assay results pooled from the literature.
± marks the error that the study gave.
Cell line: HEK-293T

`C=C1CN(S(=O)(=O)c2ccc(OC)cc2)CCCN(CC2CCCCC2)CCCN(S(=O)(=O)c2ccc(N(C)C)cc2)C1.Cl`: “reduction in viability” 50% (Alamar Blue; 1 µM).
`CCCCCCCCCCCCCCCC(=O)N[C@@H](CO)C(=O)N[C@H]1CNC(=O)[C@@H]2CCCN2C(=O)[C@H]([C@@H](C)CC)NC(=O)[C@@H]([C@@H](C)O)NC(=O)CNC(=O)[C@H](CO)NC(=O)CNC(=O)[C@H](CC(=O)O)NC(=O)CNC(=O)[C@H]2CCCCN2C1=O` gave an IC50 of over 128 mg/L (cytotoxicity, MTT).
`CC(C)Cc1ccc([C@@H](C)[C@@H](O)CC(C)C)cc1` (racemic) gave a cells killed of 95% (250 µM, 48 h).
With `Cc1ccc(Cn2cc(COc3cccc(Cc4cnc(NC(=O)CSc5nc(C)cc(C)n5)s4)c3)nn2)cc1` the inhibition was 55.1 ± 8% (cell viability, MTS; 10 µM).
The inhibition of `COc1cc(NC(=O)c2cnn(-c3ccc([N+](=O)[O-])cc3)c2C(F)(F)F)cc(OC)c1OC` is reported as 10.6 ± 1.89% (cell viability, MTS; 50 µM, 72 h).
For `Cc1c2c(nn1C)CSCc1cc(n(C)n1)CSc1cc(c3ccccc3c1)OCCCc1c(C(=O)O)n(C)c3c-2c(Cl)ccc13`, the IC50 was 25 µM (cytotoxicity, CCK-8).
With `Cc1cc(C)nc(SCC(=O)Nc2ncc(Cc3cccc(OCc4cn(Cc5ccc(OCCN6CCOCC6)cc5)nn4)c3)s2)n1` the inhibition was 63 ± 6.5% (cell viability, MTS; 10 µM).
`CCc1cnc(N2CCC(c3nc(COc4ccc(-n5cnnn5)cc4)cs3)CC2)nc1`: “normalized enrichment score” -2.17 (RNA-seq GSEA, item: HALLMARK_MYC_TARGETS_V1; concentration not given; direction not given).
`C=C1C[C@](OC)([C@H](OCOC/C=C/B2OC(CC)(CC)C(CC)(CC)O2)C(=O)NC[C@@H]2C[C@@H](OC)C(C)(C)[C@@H](C[C@@H](COC)OC)O2)O[C@H](C)[C@@H]1C` has an IC50 of 0.061 ± 0.006 µM (cell viability, sulforhodamine B; 48 h, 37 °C, together with: H2O2 100 µM).
With `O=c1[nH]cc(F)c(=O)[nH]1` the inhibition was 73 ± 2.35% (cell viability, MTS; 50 µM, 72 h).
For `CCCC(=O)[O-].[Na+]`, “histone lysine methacrylation” read “increased” (20 mM, 24 h, together with: SAHA).
Under “normalized enrichment score”, `O=c1[nH]nc(OCCCc2ccc(Cl)cc2)c(NCc2cccnc2)c1Br` is recorded as 1.67 (RNA-seq GSEA, item: HALLMARK_HYPOXIA; concentration not given; direction not given).
